Assay results of several laboratories.
Lines come from different studies, so protocols differ. ± gives the spread as reported.
Target: Cytochrome P450 2C9 (CYP2C9, Homo sapiens, UniProt P11712)
Sequence of UniProt P11712 (whole entry, looked up): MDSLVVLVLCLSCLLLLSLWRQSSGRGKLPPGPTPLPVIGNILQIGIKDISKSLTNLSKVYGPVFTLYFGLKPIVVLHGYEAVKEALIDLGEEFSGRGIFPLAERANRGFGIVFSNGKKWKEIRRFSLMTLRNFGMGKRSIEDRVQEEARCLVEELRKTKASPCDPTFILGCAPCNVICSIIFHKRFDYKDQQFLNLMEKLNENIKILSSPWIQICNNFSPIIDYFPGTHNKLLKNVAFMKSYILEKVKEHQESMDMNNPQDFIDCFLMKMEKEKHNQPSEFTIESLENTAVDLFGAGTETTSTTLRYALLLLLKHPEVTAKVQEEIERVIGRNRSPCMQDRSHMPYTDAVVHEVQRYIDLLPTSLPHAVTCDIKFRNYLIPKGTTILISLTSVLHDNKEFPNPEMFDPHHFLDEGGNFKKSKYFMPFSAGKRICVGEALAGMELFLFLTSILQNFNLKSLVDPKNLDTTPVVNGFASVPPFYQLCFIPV
Action: inhibitor

SMILES | assay | test system | conditions | IC50 [µM]
CCCN(CCC)CCc1cccc2c1CC(=O)N2 | enzyme activity | – | with: MFC substrate | > 1000
CCOC(=O)[C@@]12C[C@@H]1[C@@H](n1ccc3c(NC)nc(C#Cc4ccc(Cl)s4)nc31)[C@H](O)[C@@H]2O | enzyme activity | human liver microsomes | 10 min, pH 7.4, with: diclofenac substrate | 14.5
NC/C(=C\F)COc1cccc(Cn2c(=S)[nH]c(=O)c3[nH]cnc32)c1 | enzyme activity | – | CYP2C9 screen | > 10
CSc1ccccc1C(=O)NCCn1cc(C(=O)NCc2cccc(C)n2)c(=O)c2cc3c(cc21)OC(F)(F)O3 | enzyme activity | human liver microsomes | 20 min, 30 min NADPH preincubation, with: diclofenac 5 µM | > 100
Cc1nc(-c2cnc(NC(C)C)n(C)c2=O)ccc1Oc1ccnc(-c2cnn(C)c2)c1 | direct inhibition | – | no preincubation | 78
Cc1cc(O[C@@H]2CCOC2)cc(C(=O)Nc2ccc(F)cn2)n1 | – | – | – | > 30
CC(C)=CCc1c(O)cc2c(c1O)C(=O)C[C@@H](c1ccc(O)cc1)O2 | – | – | pH 7.4 | 5.9 ± 0.7
Cc1cccnc1C(=O)Nc1ccc(N2C(=O)c3cccc(Cl)c3C2=O)c(Cl)c1 | enzyme activity | – | 2C9 | > 30
CCC(C)(C)C(=O)O[C@H]1C[C@@H](C)C=C2C=C[C@H](C)[C@H](CC[C@@H](O)C[C@@H](O)CC(=O)O)[C@H]21 | enzyme activity | – | with: MFC substrate | 96.6
O=C(NCCN1CCCC1)c1cc(-c2ccc(CN3CCOCC3)cc2)nc2ccc(F)cc12 | – | pooled human liver microsomes | with: diclofenac | > 100
CC(C)=CCc1c(O)cc(O)c2c1O[C@H](c1ccc(O)cc1)CC2=O | – | – | pH 7.4 | 1.1 ± 0.2
